Measured values collected from several papers.
Protocols differ between the studies behind these lines. ± gives the spread as reported.
F2: Prothrombin (F2, Homo sapiens, UniProt P00734)
prp N63Q: Ribosomal processing cysteine protease Prp (prp, Staphylococcus aureus, UniProt Q2FXS9, N63Q)
Chain of UniProt Q13258 (whole entry, looked up): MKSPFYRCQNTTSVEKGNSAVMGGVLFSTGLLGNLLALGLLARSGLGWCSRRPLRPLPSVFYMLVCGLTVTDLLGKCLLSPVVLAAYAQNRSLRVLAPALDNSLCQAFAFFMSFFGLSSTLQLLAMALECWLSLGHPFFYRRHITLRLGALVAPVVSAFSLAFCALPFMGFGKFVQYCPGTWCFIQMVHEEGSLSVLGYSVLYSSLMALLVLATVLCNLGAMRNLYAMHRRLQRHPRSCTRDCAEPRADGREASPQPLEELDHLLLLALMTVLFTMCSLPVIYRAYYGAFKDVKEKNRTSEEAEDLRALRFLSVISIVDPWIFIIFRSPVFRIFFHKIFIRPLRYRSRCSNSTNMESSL
Chain of UniProt P23219 (whole entry, looked up): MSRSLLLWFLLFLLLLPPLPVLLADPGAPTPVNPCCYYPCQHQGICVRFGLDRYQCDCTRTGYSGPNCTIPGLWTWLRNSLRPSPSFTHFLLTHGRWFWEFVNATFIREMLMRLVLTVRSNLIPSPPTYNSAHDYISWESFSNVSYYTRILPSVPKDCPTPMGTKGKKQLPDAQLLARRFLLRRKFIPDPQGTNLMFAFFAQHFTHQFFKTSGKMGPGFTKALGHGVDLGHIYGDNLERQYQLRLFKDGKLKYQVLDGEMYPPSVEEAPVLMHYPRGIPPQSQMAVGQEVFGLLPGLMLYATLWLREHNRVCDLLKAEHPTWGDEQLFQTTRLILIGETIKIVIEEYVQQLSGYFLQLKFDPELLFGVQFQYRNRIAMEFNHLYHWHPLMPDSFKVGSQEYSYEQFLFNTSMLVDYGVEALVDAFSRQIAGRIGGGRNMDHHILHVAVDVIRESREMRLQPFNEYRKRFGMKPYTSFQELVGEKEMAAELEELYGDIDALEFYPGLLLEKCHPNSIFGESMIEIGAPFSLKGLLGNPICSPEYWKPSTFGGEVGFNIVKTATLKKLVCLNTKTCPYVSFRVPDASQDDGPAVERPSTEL
Chain of UniProt P37288 (whole entry, looked up): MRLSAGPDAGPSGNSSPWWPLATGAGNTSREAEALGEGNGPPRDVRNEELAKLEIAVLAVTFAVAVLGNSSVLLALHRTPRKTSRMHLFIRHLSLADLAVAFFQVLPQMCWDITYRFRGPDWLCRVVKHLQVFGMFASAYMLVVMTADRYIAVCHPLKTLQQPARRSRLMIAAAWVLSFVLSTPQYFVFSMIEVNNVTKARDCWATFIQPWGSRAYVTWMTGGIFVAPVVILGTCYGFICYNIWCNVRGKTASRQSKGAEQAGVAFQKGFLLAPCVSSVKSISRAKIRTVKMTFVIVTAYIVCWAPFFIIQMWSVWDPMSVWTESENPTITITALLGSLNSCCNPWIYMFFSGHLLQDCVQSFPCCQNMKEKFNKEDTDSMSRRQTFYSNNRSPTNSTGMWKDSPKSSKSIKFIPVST
Chain of UniProt P28222 (whole entry, looked up): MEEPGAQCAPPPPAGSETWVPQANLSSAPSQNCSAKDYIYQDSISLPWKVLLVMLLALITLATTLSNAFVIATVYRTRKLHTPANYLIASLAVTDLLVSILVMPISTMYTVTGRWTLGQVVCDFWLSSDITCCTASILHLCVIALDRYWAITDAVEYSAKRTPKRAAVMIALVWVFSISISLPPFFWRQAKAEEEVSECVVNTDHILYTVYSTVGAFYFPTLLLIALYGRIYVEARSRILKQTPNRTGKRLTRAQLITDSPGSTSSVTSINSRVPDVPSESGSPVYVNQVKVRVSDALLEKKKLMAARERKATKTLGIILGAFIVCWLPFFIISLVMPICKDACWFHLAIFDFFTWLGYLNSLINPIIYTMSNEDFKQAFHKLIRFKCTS
Chain of UniProt Q15370 (whole entry, looked up): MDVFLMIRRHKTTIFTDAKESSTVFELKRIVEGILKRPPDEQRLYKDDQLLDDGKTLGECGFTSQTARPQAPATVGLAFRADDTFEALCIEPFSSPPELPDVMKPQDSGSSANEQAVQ
Chain of UniProt Q9NS66 (whole entry, looked up): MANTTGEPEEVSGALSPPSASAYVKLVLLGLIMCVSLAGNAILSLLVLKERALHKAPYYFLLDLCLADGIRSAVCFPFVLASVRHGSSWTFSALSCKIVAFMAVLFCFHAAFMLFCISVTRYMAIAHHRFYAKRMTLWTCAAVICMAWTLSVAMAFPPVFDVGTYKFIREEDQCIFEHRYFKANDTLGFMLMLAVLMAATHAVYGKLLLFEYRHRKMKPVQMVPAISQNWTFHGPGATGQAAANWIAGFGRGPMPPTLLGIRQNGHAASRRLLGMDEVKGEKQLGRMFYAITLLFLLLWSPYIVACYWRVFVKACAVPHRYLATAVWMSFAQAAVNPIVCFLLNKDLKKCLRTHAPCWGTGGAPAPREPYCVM
Chain of UniProt P11802 (whole entry, looked up): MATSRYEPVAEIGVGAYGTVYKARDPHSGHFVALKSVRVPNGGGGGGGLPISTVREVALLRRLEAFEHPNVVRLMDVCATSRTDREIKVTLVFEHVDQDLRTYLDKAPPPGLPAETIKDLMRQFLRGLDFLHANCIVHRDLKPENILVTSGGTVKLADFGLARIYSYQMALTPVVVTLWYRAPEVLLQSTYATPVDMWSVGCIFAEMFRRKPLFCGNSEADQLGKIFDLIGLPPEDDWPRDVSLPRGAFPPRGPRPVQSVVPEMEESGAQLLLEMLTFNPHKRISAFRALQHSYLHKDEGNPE
Chain of UniProt P00811 (whole entry, looked up): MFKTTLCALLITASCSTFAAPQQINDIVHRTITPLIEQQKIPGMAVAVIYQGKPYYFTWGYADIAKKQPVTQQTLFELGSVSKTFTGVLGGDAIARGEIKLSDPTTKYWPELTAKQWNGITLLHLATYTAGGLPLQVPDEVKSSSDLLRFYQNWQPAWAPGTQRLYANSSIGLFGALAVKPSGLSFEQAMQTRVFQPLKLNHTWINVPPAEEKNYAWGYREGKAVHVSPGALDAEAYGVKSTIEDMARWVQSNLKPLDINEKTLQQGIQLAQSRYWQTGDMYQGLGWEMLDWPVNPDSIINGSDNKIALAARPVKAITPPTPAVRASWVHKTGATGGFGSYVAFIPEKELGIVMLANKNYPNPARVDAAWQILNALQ
Chain of UniProt P81947 (whole entry, looked up): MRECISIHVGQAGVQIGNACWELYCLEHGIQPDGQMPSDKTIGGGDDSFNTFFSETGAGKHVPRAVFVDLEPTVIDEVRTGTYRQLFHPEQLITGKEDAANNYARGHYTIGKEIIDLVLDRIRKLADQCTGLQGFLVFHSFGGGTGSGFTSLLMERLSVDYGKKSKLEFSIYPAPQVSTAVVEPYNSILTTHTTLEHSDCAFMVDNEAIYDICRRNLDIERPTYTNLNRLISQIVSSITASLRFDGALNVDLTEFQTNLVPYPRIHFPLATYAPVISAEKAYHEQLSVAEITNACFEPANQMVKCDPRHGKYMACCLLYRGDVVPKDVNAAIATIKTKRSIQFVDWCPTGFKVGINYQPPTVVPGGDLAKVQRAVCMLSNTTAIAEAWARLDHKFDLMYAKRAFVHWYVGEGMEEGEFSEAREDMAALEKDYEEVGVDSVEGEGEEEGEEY
Chain of UniProt P08913 (whole entry, looked up): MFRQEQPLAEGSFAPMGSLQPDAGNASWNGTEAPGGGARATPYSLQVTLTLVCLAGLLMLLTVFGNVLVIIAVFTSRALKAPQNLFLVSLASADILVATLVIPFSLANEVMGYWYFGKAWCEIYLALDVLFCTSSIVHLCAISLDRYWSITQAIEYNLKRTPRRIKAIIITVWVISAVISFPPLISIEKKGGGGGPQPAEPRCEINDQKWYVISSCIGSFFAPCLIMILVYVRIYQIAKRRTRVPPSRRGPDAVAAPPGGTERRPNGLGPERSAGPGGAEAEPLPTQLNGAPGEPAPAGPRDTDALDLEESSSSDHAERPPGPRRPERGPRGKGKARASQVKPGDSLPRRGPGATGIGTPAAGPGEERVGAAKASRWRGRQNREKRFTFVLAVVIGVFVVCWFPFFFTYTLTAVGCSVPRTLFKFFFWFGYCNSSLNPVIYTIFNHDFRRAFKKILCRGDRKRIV

`COc1cc2c(Oc3ccc4[nH]c(C)cc4c3F)ccnc2cc1OCC1(N)CC1` — result for “grade 3 Tinnitus”: 0% (paediatric recurrent refractory sarcoma; 8 mg/kg).
`CC[C@H](C)[C@H](NC(=O)[C@H](Cc1ccccc1)NC(=O)[C@H](CCC(=O)O)NC(=O)[C@H](CCCNC(=N)N)NC(=O)[C@H](C)NC(=O)[C@H](C)NC(=O)[C@H](CCC(N)=O)NC(=O)[C@H](CCC(=O)O)NC(=O)[C@H](CCC(=O)O)NC(=O)[C@H](CC(C)C)NC(=O)[C@H](Cc1ccc(O)cc1)NC(=O)[C@H](CO)NC(=O)[C@H](CO)NC(=O)[C@@H](NC(=O)[C@H](CC(=O)O)NC(=O)[C@H](CO)NC(=O)[C@@H](NC(=O)[C@H](Cc1ccccc1)NC(=O)[C@@H](NC(=O)CNC(=O)[C@H](CCC(=O)O)NC(=O)[C@H](C)NC(=O)CCc1c[nH]cn1)[C@@H](C)O)[C@@H](C)O)C(C)C)C(=O)N[C@@H](C)C(=O)N[C@@H](Cc1c[nH]c2ccccc12)C(=O)N[C@@H](CC(C)C)C(=O)N[C@H](C(=O)N[C@@H](CCCNC(=N)N)C(=O)NCC(=O)N[C@@H](CCCNC(=N)N)C(=O)N[C@@H](CCCCNC(=O)COCCOCCNC(=O)COCCOCCNC(=O)CC[C@H](NC(=O)CCCCCCCCCCCCCCCCC(=O)O)C(=O)O)C(=O)NCC(=O)NCC(=O)N[C@@H](CO)C(=O)N[C@@H](CCCCNc1c(NCCCCCN(O)C(=O)CCC(=O)NCCCCCN(O)C(=O)CCC(=O)NCCCCCN(O)C(C)=O)c(=O)c1=O)C(=O)O)C(C)C` [zirconium-89 labelled] has a tissue uptake of 0.08 %ID/g (ex vivo gamma counting; rat, femur; subcutaneous, 3 nmol/kg, 4 h, added: [89Zr]-labelled peptide).
The inhibition of `CN(c1ccc2c(c1)B(O)OC2)S(=O)(=O)c1ccc(Cl)cc1` is reported as no more than 10% (F2; enzyme activity; 50 µM, added: substrate 50 µM).
`C[C@H](NC(=O)[C@@H](O)c1cc(F)cc(F)c1)C(=O)N[C@@H]1C(=O)N(C)c2ccccc2-c2ccccc21` has an inhibition of 28.2 ± 4.8% (prp N63Q; enzyme activity; 10 µM, 21.4 nM enzyme dimer, added: 0.5 µM FITC-labelled peptide substrate).
For `Cc1ncc(C)n2nc(/C=C/c3nc(N4CCCC4)cc(N4CCOCC4)n3)nc12`, the inhibition was 4% (SKCa potassium channel; radioligand binding; 10 µM).
The TGI of `COc1cc(CCC[P+](c2ccccc2)(c2ccccc2)c2ccccc2)c(OC)c2c1OCO2.[I-]` is reported as -4.95 log M (HOP-62; SRB).
With `COc1ccc(N2C(=O)N(c3c(C)cccc3Cl)Cc3cnc(Nc4ccc(C5CCN(C)CC5)cc4OC)nc32)nc1` the inhibition was -0.33% (Protein kinase C gamma type (PRKCG, Homo sapiens, UniProt P05129); kinase activity, inhibitor; 0.5 µM, kinase PKC-GAMMA).
With `O=c1ccc2ccccc2o1` the inhibition was 4.41% (Prostaglandin G/H synthase 1 (PTGS1, Homo sapiens, UniProt P23219); enzyme activity; 10 µM).
For `CCCC[C@@H](NC(=O)[C@@H](N)Cc1c(C)cc(O)cc1C)C(=O)NCC(=O)N[C@@H](Cc1ccc(F)cc1)C(=O)N(C)CCC[C@@]1(c2ccc(F)cc2)OCc2cc(C#N)ccc21`, the inhibition was less than 50% (Alpha-2A adrenergic receptor (ADRA2A, Homo sapiens, UniProt P08913); 10 µM).
`COc1ccc(C[C@H](NC(=O)[C@H](C)NC(=O)CN2CCOCC2)C(=O)N[C@@H](Cc2ccccc2)C(=O)C2(C)CO2)cc1` (stereo in doubt) gave an inhibition of 15.9 ± 5.4% (prp N63Q; enzyme activity; 10 µM, 21.4 nM enzyme dimer, added: 0.5 µM FITC-labelled peptide substrate).
For `C[C@@H](O)[C@@H](CO)NC(=O)[C@@H](CCCNC(=N)N)NC(=O)[C@@H]1CCCN1C(=O)[C@@H]1CSSC[C@H](NC(=O)[C@H](Cc2ccccc2)NC(=O)CN2CCN(CC(=O)O)CCN(CC(=O)O)CCN(CC(=O)O)CC2)C(=O)N[C@@H](Cc2ccc(O)cc2)C(=O)N[C@@H](Cc2ccccc2)C(=O)N[C@@H](CCC(N)=O)C(=O)N[C@@H](CC(N)=O)C(=O)N1` [gallium-68 labelled], the tissue uptake was 0.22 %ID/g (Wistar rat, healthy, Parotid gland; intravenous, 8 MBq, 30 min, mean).
`COCc1c(-c2cc3cc(C)cc(OC)c3s2)c2c(N)ncnn2c1CN1CCNC(=O)C1` gave an inhibition of 11% (P2X purinergic receptor; radioligand binding; 10 µM).
`CC(C)[C@H](O)C(=O)N[C@@H](C)C(=O)N[C@@H]1C(=O)N(C)CCc2ccccc21` gave an inhibition of -13.4 ± 11.5% (prp N63Q; enzyme activity, inhibitor; 10 µM, prp 21.4 nM, added: FITC peptide substrate 0.5 µM).
The remaining binding of `C[C@H]1CN(c2n[nH]c3nc(N[C@H]4CC[C@H](NS(=O)(=O)CCC(F)(F)F)CC4)ncc23)CCO1` is reported as 1.22 (Elongin-B (Homo sapiens, UniProt Q15370); Kinobeads competition, refers to: TCEB2; 20 µM, unit not given; reference: vehicle).
With `Cc1cccc(COc2cccc(C(=O)Nc3ccc4c(c3)B(O)OC4)c2)c1` the inhibition was no more than 10% (F2; enzyme activity; 50 µM, added: substrate 50 µM).
Under “log2 fold change”, `CC[C@H](C)[C@@H]1NC(=O)[C@@H]2CCCN2C(=O)[C@H](CC(C)C)NC(=O)[C@H](CC(C)C)NC(=O)CNC(=O)[C@@H](NC(=O)[C@@H](NC(=O)[C@H](CC(=O)O)NC(=O)CNC(=O)[C@@H](NC(=O)[C@H](C)NC(=O)CNC(=O)[C@H](CCCCN)NC(=O)[C@H](CC(C)C)NC(=O)[C@H](CC(C)C)NC(=O)[C@H](CCCCN)NC(=O)CNC(=O)[C@@H](NC(=O)[C@@H](N)CC(C)C)C(C)C)C(C)C)C(C)C)CSSC[C@@H](C(=O)O)NC1=O` is recorded as -3.68 (RNA-seq, refers to: Mcemp1; mouse, traumatic brain injury model, frontal cortex and hippocampus; dose not given; reference: TBI alone).
With `O=C(Nc1cccnn1)N1CCC(=Cc2cccc(Oc3ccc(C(F)(F)F)cn3)c2)CC1` the inhibition was 1% (Myotonin-protein kinase (DMPK, Homo sapiens, UniProt Q09013); kinase activity, inhibitor; 10 µM, added: Axltide substrate).
`CC[C@H](C)[C@H](NC(=O)[C@@H](NC(=O)[C@H](N)Cc1ccccc1)C(C)C)C(=O)N[C@@H](C)C(N)=O` gave an inhibition of 74.6% (Amyloid-beta precursor protein (APP, Homo sapiens, UniProt P05067); amyloid-beta aggregation, thioflavin T fluorescence; 1.0 µM, 120 h, added: 2 µM amyloid-beta).
`CNC(=O)[C@H](Cc1c[nH]c2ccccc12)NC(=O)[C@@H](CC(=O)NO)CC(C)C` has an inhibition of 24.3 ± 12.2% (prp N63Q; enzyme activity, inhibitor; 10 µM, prp 21.4 nM, added: FITC peptide substrate 0.5 µM).
`O=C(Nc1cnccc1Cl)N1CCN(Cc2ccc3c(c2)OC(F)(F)O3)CC1` has an inhibition of 4% (Prostaglandin D2 receptor (PTGDR, Homo sapiens, UniProt Q13258); radioligand binding, inhibitor; 50 µM, human, added: [3H]prostaglandin D2).
`Nc1ccc(C(=O)Nc2ccc3c(c2)B(O)OC3)cc1` has an inhibition of no more than 10% (F2; enzyme activity; 50 µM, added: substrate 50 µM).
With `CCOC(=O)[C@H]1O[C@@H]1C(=O)N[C@@H](CC(C)C)C(=O)NCCC(C)C` the inhibition was 18.9 ± 11.5% (prp N63Q; enzyme activity, inhibitor; 10 µM, prp 21.4 nM, added: FITC peptide substrate 0.5 µM).
`Oc1ccc2c3c1O[C@H]1[C@@H](O)CC[C@@]4(O)[C@@H](C2)N(CC2CCC2)CC[C@]314`: “log2 fold change” 0.5 (Probable G-protein coupled receptor 173 (GPR173, Homo sapiens, UniProt Q9NS66); β-arrestin recruitment, TANGO luminescence, refers to: GPR173; concentration not given; reference: basal luminescence).
For `CN(C(=O)n1cnc(-c2ccc[n+]([O-])c2)c1)C1CCCCC1`, the inhibition was -10% (Vasopressin V1a receptor (AVPR1A, Homo sapiens, UniProt P37288); radioligand binding; 50 µM).
With `c1ccc(C(NCCNC(c2ccccc2)c2ccccc2)c2ccccc2)cc1` the inhibition was -12% (phosphodiesterase 4, human; enzyme activity; 10 µM, Eurofins selectivity panel).
`O=C(Nc1ccc2c(c1)B(O)OC2)c1cccc(OCc2ccccc2)c1` has an inhibition of no more than 10% (F2; enzyme activity; 50 µM, added: substrate 50 µM).
`O=C(O)CC[C@H]1CC[C@@](c2cc(F)ccc2F)(S(=O)(=O)c2ccc(Cl)cc2)CC1` gave an inhibition of 30.9 ± 9.5% (prp N63Q; enzyme activity, inhibitor; 10 µM, prp 21.4 nM, added: FITC peptide substrate 0.5 µM).
`CN1CCN(c2cc(-c3ccncc3)c(-c3ccc4ccccc4c3)nn2)CC1` has an inhibition of 21% (Beta-2 adrenergic receptor (ADRB2, Homo sapiens, UniProt P07550); antagonist, FLIPR; 10 µM).
For `Cn1cc(-c2cc(F)cc(N3CCn4c(cc5c4CCCC5)C3=O)c2CO)cc(Nc2ccc(N3CCN(C4COC4)CC3)cn2)c1=O`, the inhibition was 12% (Ribosomal protein S6 kinase alpha-2 (RPS6KA2, Homo sapiens, UniProt Q15349); kinase activity, inhibitor, SelectScreen kinase profiling; 0.1 µM, added: ATP at apparent Km).
With `O=[N+]([O-])C(Br)(CO)CO` the inhibition was 12.8% (Luciferin 4-monooxygenase (Photinus pyralis, UniProt P08659); luciferase luminescence, inhibitor; cell-free; 50 µM, counter-screen).
For `CO[C@H]1C[C@@H]2CC[C@@H](C)[C@@](O)(O2)C(=O)C(=O)N2CCCC[C@H]2C(=O)O[C@H]([C@H](C)C[C@@H]2CC[C@@H](OC(=O)NCCOCCOCCOCCOCCOCCOCCOCCOCCC(=O)N3CCc4cc(Cn5nc(-c6ccc7oc(N)nc7c6)c6c(N)ncnc65)ccc4C3)[C@H](OC)C2)C[C@@H](O)[C@H](C)/C=C(\C)[C@@H](O)[C@@H](OC)C(=O)[C@H](C)C[C@H](C)/C=C/C=C/C=C/1C`, “incidence of Vomiting TEAE” read 5.3% (patients with advanced solid tumours; intravenous, dose not given, grade ≥3).
`CC(C)N1CCC[C@H]1CNC(=O)c1cn(C2CCCC2)c(=O)c2c1c1ccccc1n2C` gave an inhibition of -1% (GABAA receptor muscimol site, rat brain; radioligand binding; 10 µM).
The inhibition of `O=C(COc1ccccc1Br)NCCc1nc2ccccc2[nH]1` is reported as 0% (Beta-lactamase (ampC, Escherichia coli K-12, UniProt P00811); enzyme activity, inhibitor; 100 µM, added: CENTA substrate).
`CN(CCN1CCC(OC(=O)Nc2ccccc2-c2ccccc2)CC1)C(=O)c1ccc(CN2CCC(C(N)=O)CC2)cc1` gave an inhibition of 0% (rat central benzodiazepine site; radioligand binding; 1 µM, added: [3H]flunitrazepam 0.4 nM).
`CC(=O)NC[C@H]1[C@H](O)[C@H](O)[C@@H]2[C@H](O)C[C@@H](CO)N21` gave an inhibition of 12% (human placental β-N-acetylglucosaminidase; 0.000805 µM, run 1, added: p-nitrophenyl GlcNAc).
With `COc1cc(Nc2ncc(F)c(Nc3ccc4c(n3)NC(=O)C(C)(C)O4)n2)cc(OC)c1OC` the inhibition was 0% (Cyclin-dependent kinase 4 (CDK4, Homo sapiens, UniProt P11802); KINOMEscan; 10 µM, -cyclinD1).
`Cn1cccc1-c1cccnc1` gave an inhibition of 2% (5-hydroxytryptamine receptor 1B (HTR1B, Homo sapiens, UniProt P28222); binding; 50 µM).
The inhibition of `CCC[C@H](NC(=O)[C@@H]1[C@H]2CCC[C@H]2CN1C(=O)[C@@H](NC(=O)[C@@H](NC(=O)c1cnccn1)C1CCCCC1)C(C)(C)C)C(=O)C(=O)NC1CC1` is reported as 41.8 ± 16.2% (prp N63Q; enzyme activity, inhibitor; 10 µM, prp 21.4 nM, added: FITC peptide substrate 0.5 µM).
For `C[C@H]1N=C(c2ccccc2F)c2cc(Br)ccc2-n2cnc(C(=O)O)c21`, the inhibition was 34.6 ± 10.9% (GABA-A receptor GABA site; binding; 10 µM).
`CCc1ccc(-c2ccc3c(C(=O)c4cc(OC)c(OC)c(OC)c4)c[nH]c3c2)cc1` — result for inhibition: “inactive” (Tubulin alpha-1B chain/TUBB2B (Bos taurus, UniProt P81947+Q6B856); tubulin polymerization, turbidimetry; concentration not given).
With `N#Cc1ccc(COc2cccc(C(=O)Nc3ccc4c(c3)B(O)OC4)c2)cc1` the inhibition was no more than 10% (F2; enzyme activity; 50 µM, added: substrate 50 µM).
With `CC(C)CCNC(=O)[C@H](CC(C)C)NC(=O)[C@H]1O[C@@H]1C(=O)O` the inhibition was 20 ± 7.1% (prp N63Q; enzyme activity; 10 µM, 21.4 nM enzyme dimer, added: 0.5 µM FITC-labelled peptide substrate).

Some of these lines once more:
`Oc1ccc2c3c1O[C@H]1[C@@H](O)CC[C@@]4(O)[C@@H](C2)N(CC2CCC2)CC[C@]314`: “log2 fold change” 0.5 (Probable G-protein coupled receptor 173 (GPR173, Homo sapiens, UniProt Q9NS66); β-arrestin recruitment, TANGO luminescence, refers to: GPR173; concentration not given; reference: basal luminescence).
For `CN(C(=O)n1cnc(-c2ccc[n+]([O-])c2)c1)C1CCCCC1`, the inhibition was -10% (Vasopressin V1a receptor (AVPR1A, Homo sapiens, UniProt P37288); radioligand binding; 50 µM).
With `c1ccc(C(NCCNC(c2ccccc2)c2ccccc2)c2ccccc2)cc1` the inhibition was -12% (phosphodiesterase 4, human; enzyme activity; 10 µM, Eurofins selectivity panel).
`O=C(Nc1ccc2c(c1)B(O)OC2)c1cccc(OCc2ccccc2)c1` has an inhibition of no more than 10% (F2; enzyme activity; 50 µM, added: substrate 50 µM).
`O=C(O)CC[C@H]1CC[C@@](c2cc(F)ccc2F)(S(=O)(=O)c2ccc(Cl)cc2)CC1` gave an inhibition of 30.9 ± 9.5% (prp N63Q; enzyme activity, inhibitor; 10 µM, prp 21.4 nM, added: FITC peptide substrate 0.5 µM).
